Published values gathered from unrelated publications.
Protocols differ between the studies behind these lines. Numbers after ± are the reported error.
Cnr2: Cannabinoid receptor 2 (Cnr2, Mus musculus, UniProt P47936)
HTR2C: 5-hydroxytryptamine receptor 2C (HTR2C, Homo sapiens, UniProt P28335)
Urease: Urease (Canavalia ensiformis, UniProt P07374)
Oprk1: Kappa-type opioid receptor (Oprk1, Mus musculus, UniProt P33534)
PRSS1: Serine protease 1 (PRSS1, Bos taurus, UniProt P00760)
MC4R: Melanocortin receptor 4 (MC4R, Homo sapiens, UniProt P32245)
NPY2R: Neuropeptide Y receptor type 2 (NPY2R, Homo sapiens, UniProt P49146)

Compound | target | test | system | setting | Ki
O=C(CCCC[C@@H]1SC[C@@H]2NC(=O)N[C@@H]21)NCCCCCCCCN1[C@H]2[C@H](O)[C@@H](O)[C@H](O[C@@H]3OC[C@@H](O)[C@H](O)[C@H]3O)C[C@H]21 (stereo partly drawn) | Exo-1,4-beta-xylosidase xlnD (xlnD, Emericella nidulans, UniProt Q5BAS1) | covalent inhibitor | Aspergillus nidulans | pH 4.5, ambient, with: 4MU-β-D-xyloside | 53.3 µM
Cc1cc2c(cc1Cl)-c1c(c(C(=O)NC(C)C3CCCCC3)nn1-c1ccc(Cl)cc1Cl)C2 (stereo not drawn) | Cnr2 | ligand displacement, radioligand | – | – | 0.85 µM
CC1(CCN2CCc3ccccc3C2)Cc2cc(Cl)ccc2C1=O (single isomer, unassigned) | HTR2C | ligand displacement, radioligand | – | – | 3.13 µM
Clc1cc2oc3cc(Cl)c(Cl)cc3c2cc1Cl | Ahr (Mus musculus, UniProt P30561) | radioligand binding, hydroxyapatite competition binding | in vitro expressed receptor | pH 7.5, with: [3H]TCDD 1.6 or 0.9 nM | 0.0011 µM
[2H]C([2H])(C)N1CCN(C2=Nc3cc(Cl)ccc3Nc3ccccc32)CC1 | HTR2C | ligand displacement, radioligand | – | – | 0.28 µM
O=C(Nc1cccc(-c2nn[nH]n2)c1)c1cc(-c2ccccc2)cc(C(F)(F)F)c1 | Beta-lactamase CTX-M-14 (Escherichia coli, UniProt Q9L5C7) | enzyme activity, inhibitor, absorbance | – | pH 7 | 79.6 µM
CCCCCc1cc(O)c2c(c1)OC(C)(C)C1CCC(C(=O)OC3OC(C(=O)O)C(O)C(O)C3O)=CC21 (stereo not drawn) | Cytochrome P450 2B6 (CYP2B6, Homo sapiens, UniProt P20813) | inhibitor | HEK293 overexpressing CYP2B6, recombinant microsomes | pH 7.4, corrected for incubation binding, with: bupropion 12.5 to 100 µM | 0.9 ± 0.54 µM
NCP(=O)(O)O | Urease | enzyme activity, inhibitor, absorbance | – | pH 7 | 240 µM
CC(C)[C@H](NC(=O)[C@@H]1CCCN1C(=O)[C@@H](N)CCCCN)C(=O)N[C@@H](CCC(=O)O)C(=O)N[C@H](CN[C@@H](CCCNC(=N)N)C(=O)N[C@@H](CCC(N)=O)C(=O)N[C@H](C(=O)O)[C@@H](C)O)Cc1ccccc1 | Plasmepsin I (PMI, Plasmodium falciparum, UniProt Q7KQM4) | – | – | – | 31 ± 5 µM
CC[C@H](C)[C@H](NC(=O)[C@H](CCC(=O)O)NC(=O)[C@H](Cc1ccc(I)cc1)NC(=O)[C@@H](C)NC(=O)[C@@H](N)Cc1ccc(O)cc1)C(=O)N[C@H](C(=O)NCC(N)=O)[C@@H](C)CC | Oprk1 | ligand displacement, radioligand | – | cell membranes | > 1 µM
Cc1cc2c(cc1Cl)-c1c(c(C(=O)NN3CCCCC3)nn1-c1ccc(Cl)cc1Cl)C2 | Cnr2 | ligand displacement, radioligand | – | – | 0.212 µM
CC[C@H](C)[C@H](NC(=O)[C@@H]1CSSC[C@H](NC(=O)[C@H](Cc2ccc(O)cc2)NC(=O)CNC(C)=O)C(=O)N[C@@H](CO)C(=O)N[C@@H](CCCNC(=N)N)C(=O)N[C@@H](CO)C(=O)N[C@@H](Cc2ccc(O)cc2)C(=O)N2CCC[C@H]2C(=O)N2CCC[C@H]2C(=O)N[C@@H](C(C)C)C(=O)N1)C(=O)N1CCC[C@H]1C(=O)N[C@@H](CC(=O)O)C(N)=O | PRSS1 | enzyme activity, inhibitor | – | – | 0.09 µM
CC1=C[C@H](O/C=C2/C(=O)O[C@H]3c4ccccc4C[C@@H]23)OC1=O (racemic) | RMS3 (Lathyrus oleraceus, UniProt A0A109QYD3) | cell-free assay, inhibitor | – | – | 0.23 µM
Cc1cc(O)cc(C)c1C[C@H](N)C(=O)N[C@H](C)C(=O)N[C@@H](Cc1ccccc1)C(=O)N[C@@H](Cc1ccccc1)C(N)=O | Oprk1 | ligand displacement, radioligand | – | cell membranes | 0.003 µM
CC[C@H](C)[C@H](NC(=O)CN)C(=O)N[C@H](C(=O)N[C@@H](CC(N)=O)C(=O)N[C@H](C(=O)N[C@@H](CC(C)C)C(=O)N[C@@H](CCC(N)=O)C(=O)N[C@@H](CCCCN)C(=O)N[C@@H](Cc1ccc(O)cc1)C(=O)N[C@@H](Cc1ccc(O)cc1)C(=O)N[C@H]1CSSC[C@@H]2NC(=O)[C@H](CCCCN)NC(=O)[C@H](CCCNC(=N)N)NC(=O)CNC(=O)[C@H](C)NC(=O)[C@H]([C@@H](C)O)NC(=O)[C@H](CO)NC(=O)[C@@H]3CSSC[C@H](NC(=O)[C@H](CCCNC(=N)N)NC(=O)CNC(=O)CNC(=O)[C@H](CCCNC(=N)N)NC(=O)[C@H](C(C)C)NC(=O)[C@H](CCCNC(=N)N)NC1=O)C(=O)N[C@@H](C)C(=O)N[C@@H](C(C)C)C(=O)N[C@@H](CC(C)C)C(=O)N[C@@H](CO)C(=O)N[C@@H](CSSC[C@@H](C(=O)N[C@@H](CCCNC(=N)N)C(=O)N[C@@H](CCCNC(=N)N)C(=O)N[C@@H](CCCCN)C(=O)N[C@@H](CCCCN)C(N)=O)NC2=O)C(=O)N[C@@H](CC(C)C)C(=O)N1CCC[C@H]1C(=O)N[C@@H](CCCCN)C(=O)N[C@@H](CCC(=O)O)C(=O)N[C@@H](CCC(=O)O)C(=O)N[C@@H](CCC(N)=O)C(=O)N[C@@H]([C@@H](C)CC)C(=O)NCC(=O)N[C@@H](CCCCN)C(=O)N3)[C@@H](C)O)[C@@H](C)CC | MC4R | ligand displacement in cells | – | – | 0.117 µM
CC(=O)N[C@H](CCCNC(=N)N)C(=O)N[C@@H](Cc1ccc(O)cc1)C(=O)N[C@@H](CCCNC(=N)NC(=O)NCCCCN)C(=O)N[C@@H](CC(C)C)C(=O)N[C@@H](CCCNC(=N)N)C(=O)N[C@@H](Cc1ccc(O)cc1)C(N)=O | NPY2R | ligand displacement, radioligand | – | – | > 5 µM
O=C(N[C@@H](Cc1ccc2ccccc2c1)C(=O)CCl)OCc1ccccc1 | PRSS1 | – | – | – | > 100 µM
COc1c(OCCOCCOCCOc2cccc(C(=O)C3CCN(CCc4ccc(F)cc4)CC3)c2OC)cccc1C(=O)C1CCN(CCc2ccc(F)cc2)CC1 | HTR2A (Homo sapiens, UniProt P28223) | ligand displacement, radioligand | – | – | 0.0072 µM
CC[C@H](C)[C@H](NC(=O)CN)C(=O)N[C@H](C(=O)N[C@@H](CC(N)=O)C(=O)N[C@H](C(=O)N[C@@H](CC(C)C)C(=O)N[C@@H](CCC(N)=O)C(=O)N[C@@H](C)C(=O)N[C@@H](Cc1ccc(O)cc1)C(=O)N[C@@H](Cc1ccc(O)cc1)C(=O)N[C@H]1CSSC[C@@H]2NC(=O)[C@H](CCCCN)NC(=O)[C@H](CCCNC(=N)N)NC(=O)CNC(=O)[C@H](CCCNC(=N)N)NC(=O)[C@H]([C@@H](C)O)NC(=O)[C@H](CO)NC(=O)[C@@H]3CSSC[C@H](NC(=O)[C@H](CCCNC(=N)N)NC(=O)CNC(=O)CNC(=O)[C@H](CCCNC(=N)N)NC(=O)[C@H](C(C)C)NC(=O)[C@H](CCCNC(=N)N)NC1=O)C(=O)N[C@@H](C)C(=O)N[C@@H](C(C)C)C(=O)N[C@@H](CC(C)C)C(=O)N[C@@H](CO)C(=O)N[C@@H](CSSC[C@@H](C(=O)N[C@@H](CCCNC(=N)N)C(=O)N[C@@H](CCCNC(=N)N)C(=O)N[C@@H](CCCCN)C(=O)N[C@@H](CCCCN)C(N)=O)NC2=O)C(=O)N[C@@H](CC(C)C)C(=O)N1CCC[C@H]1C(=O)N[C@@H](CCCCN)C(=O)N[C@@H](CCC(=O)O)C(=O)N[C@@H](CCC(=O)O)C(=O)N[C@@H](CCC(N)=O)C(=O)N[C@@H]([C@@H](C)CC)C(=O)NCC(=O)N[C@@H](CCCCN)C(=O)N3)[C@@H](C)O)[C@@H](C)CC | MC4R | ligand displacement in cells | – | – | 0.079 µM
CN(CC(N)=O)C(=O)c1cc(Cl)sc1Cl | Urease | enzyme activity, inhibitor | – | – | 7.14 µM
CC[C@H](C)[C@H](NC(=O)CN)C(=O)N[C@H](C(=O)N[C@@H](CC(N)=O)C(=O)N[C@H](C(=O)N[C@@H](CC(C)C)C(=O)N[C@@H](CCC(N)=O)C(=O)N[C@@H](CCC(N)=O)C(=O)N[C@@H](Cc1ccc(O)cc1)C(=O)N[C@@H](Cc1ccc(O)cc1)C(=O)N[C@H]1CSSC[C@@H]2NC(=O)[C@H](CCC(N)=O)NC(=O)[C@H](CCC(N)=O)NC(=O)CNC(=O)[C@H](CCC(N)=O)NC(=O)[C@H]([C@@H](C)O)NC(=O)[C@H](CO)NC(=O)[C@@H]3CSSC[C@H](NC(=O)[C@H](CCC(N)=O)NC(=O)CNC(=O)CNC(=O)[C@H](CCC(N)=O)NC(=O)[C@H](C(C)C)NC(=O)[C@H](CCC(N)=O)NC1=O)C(=O)N[C@@H](C)C(=O)N[C@@H](C(C)C)C(=O)N[C@@H](CC(C)C)C(=O)N[C@@H](CO)C(=O)N[C@@H](CSSC[C@@H](C(=O)N[C@@H](CCC(N)=O)C(=O)N[C@@H](CCC(N)=O)C(=O)N[C@@H](CCC(N)=O)C(=O)N[C@@H](CCC(N)=O)C(N)=O)NC2=O)C(=O)N[C@@H](CC(C)C)C(=O)N1CCC[C@H]1C(=O)N[C@@H](CCC(N)=O)C(=O)N[C@@H](CCC(=O)O)C(=O)N[C@@H](CCC(=O)O)C(=O)N[C@@H](CCC(N)=O)C(=O)N[C@@H]([C@@H](C)CC)C(=O)NCC(=O)N[C@@H](CCC(N)=O)C(=O)N3)[C@@H](C)O)[C@@H](C)CC | MC4R | – | HEK-293T transfected | 2 h, 37 °C, with: Eu-NDP-MSH | > 5 µM
CN(Cc1ccccc1)CP(C)(=O)O | Urease | inhibitor | – | pH 7 | > 1000 µM
C=Cc1cc(OC)c2c(c1)c(=O)oc1c2cc(OC)c2c(O)ccc([C@@H]3O[C@H](C)[C@H](O)[C@@](C)(O)[C@H]3O)c21 | Bifunctional protein GlmU (Staphylococcus aureus, UniProt Q5HIH6) | enzyme activity, inhibitor, absorbance | – | – | 22.3 µM
CC(=O)N[C@@H](Cc1ccc(O)cc1)C(=O)N[C@@H](CCCNC(=N)NC(=O)NCCCCN)C(=O)N[C@@H](CC(C)C)C(=O)N[C@@H](CCCNC(=N)N)C(=O)N[C@@H](Cc1ccc(O)cc1)C(N)=O | NPY2R | ligand displacement, radioligand | – | – | > 5 µM

For quick reference, copied from above:
Compound | target | test | system | setting | Ki
O=C(Nc1cccc(-c2nn[nH]n2)c1)c1cc(-c2ccccc2)cc(C(F)(F)F)c1 | Beta-lactamase CTX-M-14 (Escherichia coli, UniProt Q9L5C7) | enzyme activity, inhibitor, absorbance | – | pH 7 | 79.6 µM
CCCCCc1cc(O)c2c(c1)OC(C)(C)C1CCC(C(=O)OC3OC(C(=O)O)C(O)C(O)C3O)=CC21 (stereo not drawn) | Cytochrome P450 2B6 (CYP2B6, Homo sapiens, UniProt P20813) | inhibitor | HEK293 overexpressing CYP2B6, recombinant microsomes | pH 7.4, corrected for incubation binding, with: bupropion 12.5 to 100 µM | 0.9 ± 0.54 µM
NCP(=O)(O)O | Urease | enzyme activity, inhibitor, absorbance | – | pH 7 | 240 µM
CC(C)[C@H](NC(=O)[C@@H]1CCCN1C(=O)[C@@H](N)CCCCN)C(=O)N[C@@H](CCC(=O)O)C(=O)N[C@H](CN[C@@H](CCCNC(=N)N)C(=O)N[C@@H](CCC(N)=O)C(=O)N[C@H](C(=O)O)[C@@H](C)O)Cc1ccccc1 | Plasmepsin I (PMI, Plasmodium falciparum, UniProt Q7KQM4) | – | – | – | 31 ± 5 µM
